Experimental data from different studies.
A part holds a random share of what one study measured. Changes are numbered by the printed parent chain.

Study 1 — target: CCNA2, cyclin fold, Cln2 fusion (human); technique: yeast growth competition, sequencing; sample: yeast; setting: weak parent motif; baseline: not given; reading: higher = stronger binding
Starting sequence: MASTL docking peptide (human); PMIAKNLMCELDE
Change	normalised enrichment score
PMIHKNLMCELDE [A4H]	-0.154
PMIAKNLMCEFDE [L11F]	0.655
PMIAKNLMCHLDE [E10H]	-0.187
PMIAKNLMCKLDE [E10K]	0.422
PMIYKNLMCELDE [A4Y]	0.0543
PMIAKNHMCELDE [L7H]	-0.912
PFIAKNLMCELDE [M2F]	0.231
PMIAKNCMCELDE [L7C]	-0.149
PMIAKNLQCELDE [M8Q]	-0.348
PMIAKNLMVELDE [C9V]	-0.306
PMIEKNLMCELDE [A4E]	-0.65
PMIAKNLMYELDE [C9Y]	-0.43
PMIAKNLMCELTE [D12T]	0.055
PMYAKNLMCELDE [I3Y]	-0.0123
PRIAKNLMCELDE [M2R]	0.259
PMIAKNLPCELDE [M8P]	-0.207
PMIAKNLMCALDE [E10A]	0.724
PMIAKNIMCELDE [L7I]	0.0504
PMIAKVLMCELDE [N6V]	-0.0235
PMIANNLMCELDE [K5N]	-0.132
PMIAKNLMCLLDE [E10L]	0.754
PMIAKNLMCELPE [D12P]	-0.0952

Study 2 — technique: DHFR PCA, deep sequencing; sample: yeast; together with: (+)-ABA 0.11 µM; baseline: wild-type fitted maximum; reading: higher = stronger binding
Target: ABI1, truncated, D143A, DHFR fusion (Arabidopsis thaliana)
Setting: methotrexate growth selection, single substitutions
Starting sequence: PYL1, truncated, DHFR fusion (Arabidopsis thaliana); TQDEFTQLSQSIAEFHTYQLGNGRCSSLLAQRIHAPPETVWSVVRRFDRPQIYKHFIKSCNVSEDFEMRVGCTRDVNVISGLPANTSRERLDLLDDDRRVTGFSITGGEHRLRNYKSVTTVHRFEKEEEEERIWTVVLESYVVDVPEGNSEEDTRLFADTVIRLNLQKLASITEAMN
Change	relative binding score [%]
P50C	-0.636
F5E	7
R99C	16.5
D75V	46.2
D95F	-14.2
T6G	34.6
N114W	-6.66
T17R	2.93
A158S	-6.47
I57E	-7.82
T1D	35.7
F103P	-6.36
V143L	0.0827

Study 3 — technique: universal PBM; form: double-stranded DNA, one strand shown; sample: in vitro; tested at: not given; reading: higher = stronger binding
Target: Sal-like protein 4, full length isoform B (SALL4, Homo sapiens, UniProt Q9UJQ4-2, residues 1-616)
Setting: 8-mer, flanks averaged, mean of replicates
Target sequence (chain): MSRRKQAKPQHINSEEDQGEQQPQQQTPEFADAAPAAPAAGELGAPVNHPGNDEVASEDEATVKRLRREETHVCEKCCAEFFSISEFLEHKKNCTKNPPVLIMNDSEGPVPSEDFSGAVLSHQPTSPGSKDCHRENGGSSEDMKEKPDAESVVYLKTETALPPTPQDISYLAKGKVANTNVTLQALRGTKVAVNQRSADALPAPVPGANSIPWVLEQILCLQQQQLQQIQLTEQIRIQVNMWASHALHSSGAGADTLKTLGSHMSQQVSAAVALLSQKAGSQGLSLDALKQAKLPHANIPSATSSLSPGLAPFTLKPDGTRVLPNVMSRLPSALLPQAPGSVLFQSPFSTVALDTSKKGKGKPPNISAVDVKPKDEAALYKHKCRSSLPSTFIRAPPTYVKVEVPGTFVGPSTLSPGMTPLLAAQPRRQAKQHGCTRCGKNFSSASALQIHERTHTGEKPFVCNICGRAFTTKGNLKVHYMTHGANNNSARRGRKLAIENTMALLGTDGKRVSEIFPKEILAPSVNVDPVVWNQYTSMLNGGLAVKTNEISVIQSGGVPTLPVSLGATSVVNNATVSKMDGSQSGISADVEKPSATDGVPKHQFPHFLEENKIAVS
Oligonucleotide	E-score
GAAATAAA	0.27
CTAGCATA	0.194
ACAGGCCA	-0.194
ACTAAGCT	-0.00929
GCAAATTA	0.174
TAGTCGAA	0.0995
CATCTGTA	0.188
ACCGCCGT	-0.217
AATCCTAA	0.0888
AGACTACC	-0.00209
AGCTCTTA	-0.161
ATAAGTAG	0.164
ATGGGGCA	-0.178
CCTAAATA	0.194
CGAAAGTC	-0.0961
ACTTAGTC	-0.0692
AAGGGCTG	-0.224
GCTTTAAC	0.025
CGAGGTAA	-0.123
GCTAAGTA	0.071
TATTACGA	0.303
AATACCCC	-0.206
TCTAATAA	0.349
ACCCATGC	-0.029
GACGCTTA	-0.0745

Study 4 — technique: protein-binding microarray; form: double-stranded DNA, one strand shown; sample: in vitro; tested at: 2540 nM top; setting: 60-bp whole probe; together with: salmon DNA 0.4 mg/ml; baseline: random background probes; reading: higher = stronger binding; shared flanks, not repeated: GCCTAGCAC … GTCTTGATTCGCTTGACGCTGCTG
Target: Interferon regulatory factor 3, full length, phosphomimetic (IRF3, Homo sapiens, UniProt Q14653, residues 1-427, S386D/S396D/S398D/S402D/T404D/S405D)
Chain of UniProt Q14653 (whole entry, unmodified, looked up): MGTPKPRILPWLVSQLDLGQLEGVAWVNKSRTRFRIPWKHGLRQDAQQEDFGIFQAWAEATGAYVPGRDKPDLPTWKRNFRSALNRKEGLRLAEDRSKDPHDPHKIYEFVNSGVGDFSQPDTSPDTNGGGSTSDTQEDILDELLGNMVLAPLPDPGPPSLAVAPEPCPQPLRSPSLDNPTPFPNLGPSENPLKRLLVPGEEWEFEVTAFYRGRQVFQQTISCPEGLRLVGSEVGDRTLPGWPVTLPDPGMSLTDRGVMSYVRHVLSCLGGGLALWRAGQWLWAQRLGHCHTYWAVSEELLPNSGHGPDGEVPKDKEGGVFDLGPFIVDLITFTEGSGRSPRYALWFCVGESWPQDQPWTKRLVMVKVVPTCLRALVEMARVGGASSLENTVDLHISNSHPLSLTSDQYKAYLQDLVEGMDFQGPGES
Oligonucleotide	fitted relative affinity
TTAGATATCGGACTGGGTTAGTGCTAG	-0.14 z-score
GACGGTTTCGGGTATCTGGACGTGCTA	4.39 z-score
TCATACATCTCTCTTAAACTGTGCTAG	0.532 z-score
GACGCTTTCGACTTTCGGGACGTGCTA	1.72 z-score
GACGATCTCCGTCTCGAGACGTGCTAG	1.22 z-score
CCAATTCTCTTTTCACTTTCGTGCTAG	3.21 z-score
TCAGGTTTCACTTTAAAACTGTGCTAG	5.84 z-score
TTAGGTATCGGGTATCCGTTAGTGCTA	1.99 z-score
GGTTTTTACTTTCTGAATGCGTGCTAG	4.11 z-score
TTAGAACTGAGTCTCGGTTAGTGCTAG	-0.319 z-score
TTAGGTCTCGGTCTCGATTAGTGCTAG	1.03 z-score
GACGGTTGCCTTTCCCTGACGTGCTAG	5.18 z-score
GATGGACTGGGGTATCGGGACGTGCTA	-0.678 z-score
GACGGTATCGGGAGTGGGGACGTGCTA	0.869 z-score
CCTAATTCTCTTTTCACTTTGTGCTAG	2.3 z-score
TTAGATTCCGGGTATCGATTAGTGCTA	1.3 z-score
TTTTTTTTTTTTGTATTTTTGTGCTAG	1.81 z-score

Repeated from above (study 3):
Oligonucleotide	E-score
GCTAAGTA	0.071
TATTACGA	0.303
AATACCCC	-0.206
TCTAATAA	0.349
ACCCATGC	-0.029
